Measurements pooled from the literature.
Compare with care: the assays were run in different laboratories. Numbers after ± are the reported error.
SLC6A3: Sodium-dependent dopamine transporter (SLC6A3, Homo sapiens, UniProt Q01959)
Chain of UniProt Q01959 (whole entry, unmodified, looked up): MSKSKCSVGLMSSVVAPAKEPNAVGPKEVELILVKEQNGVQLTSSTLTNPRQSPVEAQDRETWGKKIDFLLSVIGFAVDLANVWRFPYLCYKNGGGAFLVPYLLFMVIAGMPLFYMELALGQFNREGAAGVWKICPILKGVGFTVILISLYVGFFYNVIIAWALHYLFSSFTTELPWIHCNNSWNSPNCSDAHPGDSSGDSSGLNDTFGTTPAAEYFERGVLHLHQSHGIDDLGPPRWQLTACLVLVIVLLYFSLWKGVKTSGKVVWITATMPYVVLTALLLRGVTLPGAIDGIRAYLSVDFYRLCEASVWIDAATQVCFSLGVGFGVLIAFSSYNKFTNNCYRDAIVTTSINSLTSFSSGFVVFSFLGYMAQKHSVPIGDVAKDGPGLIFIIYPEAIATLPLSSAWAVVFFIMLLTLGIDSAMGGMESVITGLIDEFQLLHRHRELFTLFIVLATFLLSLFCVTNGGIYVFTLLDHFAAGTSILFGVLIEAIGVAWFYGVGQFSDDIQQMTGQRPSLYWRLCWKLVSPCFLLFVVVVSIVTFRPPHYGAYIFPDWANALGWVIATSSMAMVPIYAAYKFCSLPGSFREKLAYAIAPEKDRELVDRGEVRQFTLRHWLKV

NCCc1ccc(O)cc1 — IC50 (SLC6A3): 4.12 ± 0.81 µM
CNC(C)C(=O)c1ccccc1 (stereo not shown) — IC50 (SLC6A3; transporter uptake, inhibitor, radiometric): 0.225 µM
CCc1ccc2[nH]c3nc(SCCNS(=O)(=O)c4ccc(NC(C)=O)cc4)nnc3c2c1 — IC50 (Sodium-dependent dopamine transporter (SLC6A3, Homo sapiens, UniProt Q01959, C306A/W84C); MTSEA-biotin labelling protection; HEK293 cells expressing SLC6A3): 0.45 ± 0.08 µM
CC(N)C(=O)c1ccc2c(c1)OCO2 (stereo not shown) — IC50 (SLC6A3; transporter uptake, inhibitor, radiometric): 34 µM
CCCC(NC)C(=O)c1ccc(C)cc1 (stereo not shown) — IC50 (SLC6A3; transporter uptake, inhibitor, radiometric): 0.188 µM
NCCc1ccccc1 — IC50 (SLC6A3): 2.74 ± 0.44 µM
CCCC(C(=O)c1ccc2c(c1)OCO2)N1CCCC1 (stereo not shown) — IC50 (SLC6A3; transporter uptake, inhibitor, radiometric): 0.053 µM
CCN(CC)C(=O)[C@@H]1C=C2c3cccc4[nH]cc(c34)C[C@H]2N(C)C1 — IC50 (SLC6A3; transporter uptake, inhibitor, radiometric): > 100 µM
CCCC(NC)C(=O)c1ccc(Cl)cc1 (stereo not shown) — IC50 (SLC6A3; transporter uptake, inhibitor, radiometric): 0.486 µM
CCCC(C(=O)c1ccc(O)c(O)c1)N1CCCC1 (stereo not shown) — IC50 (SLC6A3; transporter uptake, inhibitor, radiometric): 0.092 µM
COc1cc([N+](=O)[O-])c(OC)cc1CCNCc1ccccc1OC — IC50 (SLC6A3; transporter uptake, inhibitor, radiometric): > 100 µM
CCCC(C(=O)c1ccc2c(c1)OCO2)N(C)C (stereo not shown) — IC50 (SLC6A3; transporter uptake, inhibitor, radiometric): 0.233 µM
CCCC(C(=O)c1ccc(O)c(OC)c1)N1CCCC1 (stereo not shown) — IC50 (SLC6A3; transporter uptake, inhibitor, radiometric): 7.7 µM
CCCNC(C)C(=O)c1ccc2c(c1)OCO2 (stereo not shown) — IC50 (SLC6A3; transporter uptake, inhibitor, radiometric): 2.38 µM
CNC(C)Cc1ccc(O)c(OC)c1 (stereo not shown) — IC50 (SLC6A3; transporter uptake, inhibitor, radiometric): 5.6 µM
COC(=O)[C@H]1[C@@H](c2ccc(Cl)c(Cl)c2)C[C@@H]2CC[C@H]1N2CCOCCOCCOCCOCCOCCNC(=O)c1ccc2c(c1)C1(OC2=O)c2ccc(N3CCC3)cc2[Si](C)(C)c2cc(N3CCC3)ccc21 — IC50 (SLC6A3; transporter uptake, inhibitor, radiometric): 0.102 µM

Some of these lines once more:
COc1cc([N+](=O)[O-])c(OC)cc1CCNCc1ccccc1OC — IC50 (SLC6A3; transporter uptake, inhibitor, radiometric): > 100 µM
CCCC(C(=O)c1ccc2c(c1)OCO2)N(C)C (stereo not shown) — IC50 (SLC6A3; transporter uptake, inhibitor, radiometric): 0.233 µM
